Experimental data of several laboratories.
Compare with care: the assays were run in different laboratories. Numbers after ± are the reported error.
Signal transducer and activator of transcription 2 SH2 domain: Signal transducer and activator of transcription 2, SH2 domain (Homo sapiens, UniProt P52630)
Chain of UniProt P52630 (whole entry, looked up): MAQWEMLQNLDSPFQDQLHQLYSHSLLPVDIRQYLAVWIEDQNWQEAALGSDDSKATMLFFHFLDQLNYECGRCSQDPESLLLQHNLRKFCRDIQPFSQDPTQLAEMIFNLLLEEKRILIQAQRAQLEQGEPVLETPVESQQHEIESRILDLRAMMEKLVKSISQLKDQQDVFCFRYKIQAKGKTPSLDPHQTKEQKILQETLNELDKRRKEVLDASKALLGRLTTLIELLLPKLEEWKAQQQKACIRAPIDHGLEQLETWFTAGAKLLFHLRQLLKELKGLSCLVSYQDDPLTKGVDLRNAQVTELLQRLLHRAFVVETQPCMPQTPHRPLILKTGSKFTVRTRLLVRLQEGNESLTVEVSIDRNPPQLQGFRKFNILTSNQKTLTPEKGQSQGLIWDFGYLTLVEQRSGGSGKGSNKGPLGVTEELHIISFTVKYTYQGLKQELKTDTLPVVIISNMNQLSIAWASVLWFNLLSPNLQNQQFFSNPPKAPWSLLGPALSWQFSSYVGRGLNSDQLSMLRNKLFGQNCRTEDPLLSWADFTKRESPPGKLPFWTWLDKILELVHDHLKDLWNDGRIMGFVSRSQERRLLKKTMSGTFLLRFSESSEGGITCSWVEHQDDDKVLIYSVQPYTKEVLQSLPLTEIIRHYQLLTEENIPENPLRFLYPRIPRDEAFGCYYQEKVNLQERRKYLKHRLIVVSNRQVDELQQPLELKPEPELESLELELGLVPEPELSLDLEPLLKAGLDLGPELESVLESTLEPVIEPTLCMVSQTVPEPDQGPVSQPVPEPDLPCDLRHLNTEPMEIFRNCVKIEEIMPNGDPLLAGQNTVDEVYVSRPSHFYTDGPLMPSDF
Adapter molecule crk SH2 domain: Adapter molecule crk, SH2 domain (Homo sapiens, UniProt P46108)
Chain of UniProt P46108 (whole entry, looked up): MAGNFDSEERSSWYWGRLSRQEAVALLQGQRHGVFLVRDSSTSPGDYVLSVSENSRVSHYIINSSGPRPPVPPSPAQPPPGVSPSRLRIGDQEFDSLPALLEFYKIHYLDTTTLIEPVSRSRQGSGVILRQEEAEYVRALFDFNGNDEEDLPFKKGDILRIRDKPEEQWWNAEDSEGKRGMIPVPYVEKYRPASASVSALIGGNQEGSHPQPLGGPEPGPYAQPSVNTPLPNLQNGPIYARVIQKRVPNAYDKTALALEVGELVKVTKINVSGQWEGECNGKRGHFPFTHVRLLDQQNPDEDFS
Chain of UniProt P00512 (whole entry, unmodified, looked up): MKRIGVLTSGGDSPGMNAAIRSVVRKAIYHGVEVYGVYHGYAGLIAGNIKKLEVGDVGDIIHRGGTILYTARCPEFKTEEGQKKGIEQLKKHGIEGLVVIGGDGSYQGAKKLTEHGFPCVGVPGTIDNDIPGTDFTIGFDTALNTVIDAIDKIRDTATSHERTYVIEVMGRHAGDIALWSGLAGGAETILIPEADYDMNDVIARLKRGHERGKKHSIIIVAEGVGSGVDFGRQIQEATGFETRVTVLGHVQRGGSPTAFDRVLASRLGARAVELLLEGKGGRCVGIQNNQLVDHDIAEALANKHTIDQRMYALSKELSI
Chain of UniProt Q92PC8 (whole entry, unmodified, looked up): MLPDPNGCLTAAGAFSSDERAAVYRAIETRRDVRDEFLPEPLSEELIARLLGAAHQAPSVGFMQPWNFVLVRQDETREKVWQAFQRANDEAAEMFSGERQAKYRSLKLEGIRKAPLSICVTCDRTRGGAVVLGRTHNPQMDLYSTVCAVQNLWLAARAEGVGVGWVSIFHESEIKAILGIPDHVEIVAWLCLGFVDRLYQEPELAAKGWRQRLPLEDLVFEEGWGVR
Chain of UniProt P08510 (whole entry, unmodified, looked up): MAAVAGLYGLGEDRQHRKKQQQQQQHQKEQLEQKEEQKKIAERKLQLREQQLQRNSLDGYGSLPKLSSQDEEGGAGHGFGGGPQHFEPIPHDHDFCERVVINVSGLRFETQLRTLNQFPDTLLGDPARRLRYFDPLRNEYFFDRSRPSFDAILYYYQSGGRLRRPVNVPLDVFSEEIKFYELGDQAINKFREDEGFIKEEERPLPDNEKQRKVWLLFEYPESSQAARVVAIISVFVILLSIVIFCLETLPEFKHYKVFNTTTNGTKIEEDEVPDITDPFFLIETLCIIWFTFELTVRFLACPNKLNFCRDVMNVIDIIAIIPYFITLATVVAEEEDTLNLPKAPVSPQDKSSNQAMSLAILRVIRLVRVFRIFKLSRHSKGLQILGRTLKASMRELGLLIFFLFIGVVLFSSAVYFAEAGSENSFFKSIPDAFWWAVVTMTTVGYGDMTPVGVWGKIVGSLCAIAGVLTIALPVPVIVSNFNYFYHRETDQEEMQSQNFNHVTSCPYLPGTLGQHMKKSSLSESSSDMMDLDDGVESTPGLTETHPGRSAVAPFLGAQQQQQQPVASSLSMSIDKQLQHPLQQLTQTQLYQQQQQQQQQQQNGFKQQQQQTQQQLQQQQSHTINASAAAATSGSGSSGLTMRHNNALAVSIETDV
Chain of UniProt P43403 (whole entry, looked up): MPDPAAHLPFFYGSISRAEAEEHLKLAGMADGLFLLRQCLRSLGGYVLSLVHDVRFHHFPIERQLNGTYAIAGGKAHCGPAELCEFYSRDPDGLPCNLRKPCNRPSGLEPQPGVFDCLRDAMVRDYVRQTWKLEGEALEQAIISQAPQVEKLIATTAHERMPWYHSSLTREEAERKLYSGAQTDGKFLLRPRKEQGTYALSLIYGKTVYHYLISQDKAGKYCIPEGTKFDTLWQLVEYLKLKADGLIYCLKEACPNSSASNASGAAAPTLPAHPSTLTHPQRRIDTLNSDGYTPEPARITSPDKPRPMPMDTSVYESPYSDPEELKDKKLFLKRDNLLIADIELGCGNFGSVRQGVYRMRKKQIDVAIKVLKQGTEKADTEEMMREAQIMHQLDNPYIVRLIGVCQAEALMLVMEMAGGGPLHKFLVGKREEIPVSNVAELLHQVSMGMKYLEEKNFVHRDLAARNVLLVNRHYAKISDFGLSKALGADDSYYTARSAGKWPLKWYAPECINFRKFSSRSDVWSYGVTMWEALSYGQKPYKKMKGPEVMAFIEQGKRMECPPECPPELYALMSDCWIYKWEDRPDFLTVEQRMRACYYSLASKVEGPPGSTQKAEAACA
Chain of UniProt P07700 (whole entry, unmodified, looked up): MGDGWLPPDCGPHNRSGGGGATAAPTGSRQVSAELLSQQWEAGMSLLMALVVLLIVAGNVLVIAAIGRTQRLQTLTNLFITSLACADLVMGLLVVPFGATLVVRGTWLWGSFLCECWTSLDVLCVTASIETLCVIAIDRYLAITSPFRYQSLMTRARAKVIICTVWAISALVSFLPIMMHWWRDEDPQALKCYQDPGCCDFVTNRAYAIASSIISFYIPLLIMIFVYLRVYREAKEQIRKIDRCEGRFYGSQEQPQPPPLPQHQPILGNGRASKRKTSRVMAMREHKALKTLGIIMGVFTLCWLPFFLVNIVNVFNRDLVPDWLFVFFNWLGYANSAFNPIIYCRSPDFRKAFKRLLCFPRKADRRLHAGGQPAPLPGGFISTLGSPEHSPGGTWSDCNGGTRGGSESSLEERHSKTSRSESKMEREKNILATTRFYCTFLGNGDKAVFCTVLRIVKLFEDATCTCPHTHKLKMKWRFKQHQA
Chain of UniProt P04905 (whole entry, looked up): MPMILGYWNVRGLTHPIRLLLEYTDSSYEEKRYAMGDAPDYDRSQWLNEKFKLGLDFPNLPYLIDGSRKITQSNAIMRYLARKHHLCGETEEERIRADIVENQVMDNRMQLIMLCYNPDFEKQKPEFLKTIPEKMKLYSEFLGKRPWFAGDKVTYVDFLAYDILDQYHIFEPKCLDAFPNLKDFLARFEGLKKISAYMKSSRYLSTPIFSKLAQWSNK

The maximum inhibition of `COc1ccc(-c2ccccc2)cc1NS(=O)(=O)c1cc(Cl)cc(Cl)c1O` is reported as 12.9% (human coronavirus OC43; virus-induced cell killing; MRC-5; screen).
`CC(CCc1ccc(O)cc1)NCCc1ccc(O)c(O)c1` (centres unmarked) gave a Kd of 3.47 µM (ADRB1 (Meleagris gallopavo, UniProt P07700, A282L/C116L/F327A/F338M/M90V/R68S/Y227A); binding, [3H]-CGP 12177 competition binding; CHO cells expressing ADRB1 β6-m23, whole cells).
For `CN(CC(=O)O)C(=N)NP(=O)(O)O`, the Kd was 12 ± 10 µM (Creatine kinase U-type, mitochondrial (CKMT1A, Homo sapiens, UniProt P12532, D359N); microscale thermophoresis; pH 7.0, D321N mutant, no substrate).
With `CC(C)C[C@H](NC(=O)[C@@H](NC(=O)[C@H](CO)NC(=O)[C@H](CO)NC(=O)[C@@H](NC(=O)[C@H](CC(=O)O)NC(=O)[C@H](CC(C)C)NC(=O)[C@@H]1CCCN1C(=O)[C@H](CO)NC(=O)c1ccc2c(c1)C(=O)OC21c2ccc(N(C)C)cc2Oc2cc(N(C)C)ccc21)[C@@H](C)O)C(C)C)C(=O)N[C@@H](Cc1ccc(OP(=O)(O)O)cc1)C(=O)N[C@H](C(=O)N[C@@H](C)C(=O)N[C@H](C(=O)N[C@@H](CCC(N)=O)C(=O)N1CCC[C@H]1C(=O)N[C@@H](CC(N)=O)C(=O)N[C@@H](CCC(=O)O)C(=O)N[C@@H](CC(=O)O)C(=O)O)C(C)C)[C@@H](C)O` the Kd was 0.997 µM (Signal transducer and activator of transcription 2 SH2 domain; binding).
`CC[C@H](CO)Nc1nc(NCc2ccc(-c3ccccn3)cc2)c2ncn(C(C)C)c2n1` gave a Kd of 4.88 µM (Dual specificity tyrosine-phosphorylation-regulated kinase 1B (DYRK1B, Homo sapiens, UniProt Q9Y463); binding, competition affinity chromatography; SH-SY5Y cell extract).
`CSCC[C@H](NC(=O)CNC(=O)[C@H](Cc1ccccc1)NC(=O)[C@H](CC(=O)O)NC(=O)CNC(=O)c1ccc2c(c1)C(=O)OC21c2ccc(N(C)C)cc2Oc2cc(N(C)C)ccc21)C(=O)N[C@@H](CO)C(=O)N[C@@H](CCCNC(=N)N)C(=O)N[C@@H](CC(=O)O)C(=O)N[C@H](C(=O)N[C@@H](Cc1ccc(OP(=O)(O)O)cc1)C(=O)N[C@@H](CO)C(=O)N[C@H](C(=O)N[C@@H](CC(=O)O)C(=O)N[C@@H](Cc1ccc(O)cc1)C(=O)N[C@@H](Cc1ccc(O)cc1)C(=O)N[C@@H](CCCNC(=N)N)C(=O)N[C@H](C(=O)N[C@@H](CC(=O)O)C(=O)O)C(C)C)[C@@H](C)O)C(C)C` gave a Kd of 0.902 µM (Adapter molecule crk SH2 domain; binding).
The Kd of `C=C(OP(=O)(O)O)C(=O)O` is reported as 1 ± 0.1 µM (pfkA (Geobacillus stearothermophilus, UniProt P00512, H160A)).
`O=S(=O)(O)c1cccc2cccc(Nc3ccccc3)c12` gave a Kd of 27 µM (Gstm1 (Rattus norvegicus, UniProt P04905); isothermal titration calorimetry).
`Nc1ncnc2c1ncn2[C@@H]1O[C@H](COP(=O)(O)OP(=O)(O)O)[C@@H](O)[C@H]1O` gave a Kd of 360 µM (Cell cycle histidine kinase CckA, R374A; cytoplasmic region (Caulobacter vibrioides, UniProt Q9X688, R374A)).
`CSCC[C@H](N)C(=O)N[C@@H](C)C(=O)N[C@@H](C)C(=O)N[C@H](C(=O)N[C@@H](C)C(=O)NCC(=O)N[C@@H](CC(C)C)C(=O)N[C@@H](Cc1ccc(O)cc1)C(=O)NCC(=O)N[C@@H](CC(C)C)C(=O)NCC(=O)N[C@@H](CCC(=O)O)C(=O)N[C@@H](CC(=O)O)C(=O)N[C@@H](CCCNC(=N)N)C(=O)N[C@@H](CCC(N)=O)C(=O)N[C@@H](Cc1c[nH]cn1)C(=O)N[C@@H](CCCNC(=N)N)C(=O)N[C@@H](CCCCN)C(=O)N[C@@H](CCCCN)C(=O)N[C@@H](CCC(N)=O)C(N)=O)C(C)C` gave a Kd of 3.7 µM (Sh, DEL6-46 (Drosophila melanogaster, UniProt P08510); ion current, blocker, inside-out patch clamp; +70 mV).
With `CC(C)C[C@H](NC(=O)[C@H](Cc1ccc(OP(=O)(O)O)cc1)NC(=O)[C@H](CCC(=O)O)NC(=O)[C@@H]1CCCN1C(=O)[C@H](CC(N)=O)NC(=O)CNC(=O)[C@@H](NC(=O)[C@H](C)NC(=O)[C@@H](NC(=O)[C@H](CO)NC(=O)[C@H](Cc1c[nH]cn1)NC(=O)c1ccc2c(c1)C(=O)OC21c2ccc(N(C)C)cc2Oc2cc(N(C)C)ccc21)[C@@H](C)O)C(C)C)C(=O)N[C@@H](CC(N)=O)C(=O)N[C@H](C(=O)N[C@H](C(=O)N[C@@H](CCC(N)=O)C(=O)N1CCC[C@H]1C(=O)N[C@H](C(=O)N[C@@H](CC(=O)O)C(=O)O)[C@@H](C)O)C(C)C)[C@@H](C)O` the Kd was 1.14 µM (Tyrosine-protein kinase ZAP-70, SH2 domains (ZAP70, Homo sapiens, UniProt P43403); binding).
For `C[N+](C)(C)[C@@H](Cc1c[nH]c(=S)[nH]1)C(=O)[O-]`, the Kd was > 100 µM (egtUBC (Streptococcus pneumoniae, UniProt A0A0H2ZQB9, K242A); binding).
With `Nc1ncnc2c1ncn2[C@@H]1O[C@H](CN(CC[C@H](N)C(=O)O)Cc2cn(CCNC(=O)c3ccc4c(c3)C(=O)OC43c4ccc(O)cc4Oc4cc(O)ccc43)nn2)[C@@H](O)[C@H]1O` the Kd was 3.5 µM (Genome polyprotein, NS5 MTase domain (ZIKV, UniProt A0A024B7W1); binding; Zika virus).
The Kd of `O=C1c2ccccc2C(=O)c2ccccc21` is reported as > 100 µM (Reaction center protein L chain, QB site (pufL, Cereibacter sphaeroides, UniProt P0C0Y8); QB site binding, competitive inhibitor).
`O=C(CO)[C@@H](O)[C@H](O)[C@H](O)COP(=O)(O)O` has a Kd of 30 ± 2 µM (pfkA (Geobacillus stearothermophilus, UniProt P00512)).
With `CC[C@H](C)[C@H](NC(=O)[C@H](Cc1ccc(OP(=O)(O)O)cc1)NC(=O)[C@H](CCC(=O)O)NC(=O)[C@@H]1CCCN1C(=O)[C@@H](NC(=O)[C@@H]1CCCN1C(=O)[C@H](CC(C)C)NC(=O)[C@H](Cc1ccccc1)NC(=O)[C@@H](NC(=O)[C@H](CC(=O)O)NC(=O)[C@H](CC(=O)O)NC(=O)c1ccc2c(c1)C(=O)OC21c2ccc(N(C)C)cc2Oc2cc(N(C)C)ccc21)[C@@H](C)O)C(C)C)C(=O)N[C@@H](CC(N)=O)C(=O)N[C@@H](CCC(N)=O)C(=O)N[C@@H](CO)C(=O)N[C@H](C(=O)N1CCC[C@H]1C(=O)N[C@@H](CCCCN)C(=O)N[C@@H](CC(=O)O)C(=O)O)C(C)C` the Kd was 1.63 µM (Signal transducer and activator of transcription 2 SH2 domain; binding).
`O=c1c2ccccc2[se]n1-c1ccccc1` gave a maximum inhibition of 14.2% (human coronavirus OC43; virus-induced cell killing; MRC-5; screen).
With `CSCC[C@H](NC(=O)[C@H](Cc1ccc(OP(=O)(O)O)cc1)NC(=O)CNC(=O)CNC(=O)[C@H](CC(=O)O)NC(=O)[C@H](CO)NC(=O)[C@H](CCC(=O)O)NC(=O)CNC(=O)[C@@H](NC(=O)[C@H](CC(C)C)NC(=O)[C@H](CO)NC(=O)c1ccc2c(c1)C(=O)OC21c2ccc(N(C)C)cc2Oc2cc(N(C)C)ccc21)[C@@H](C)O)C(=O)N[C@@H](CC(=O)O)C(=O)N[C@@H](CCSC)C(=O)N[C@@H](CO)C(=O)N[C@@H](CCCCN)C(=O)N[C@@H](CC(=O)O)C(=O)N[C@@H](CCC(=O)O)C(=O)N[C@@H](CC(=O)O)C(=O)O` the Kd was 1.34 µM (Signal transducer and activator of transcription 2 SH2 domain; binding).
For `Cc1cc2nc3c(=O)[nH]c(=O)nc-3n(C[C@H](O)[C@H](O)[C@H](O)COP(=O)(O)O)c2cc1C`, the Kd was 14 ± 5 µM (5,6-dimethylbenzimidazole synthase (bluB, Rhizobium meliloti, UniProt Q92PC8, R34K); binding; Sinorhizobium meliloti).
`CC[C@H](C)[C@H](NC(=O)[C@H](Cc1ccccc1)NC(=O)CNC(=O)[C@H](Cc1c[nH]c2ccccc12)NC(=O)[C@@H]1CSC[C@@H](NC(=O)[C@H](Cc2ccc(O)cc2)NC(=O)[C@H](Cc2c[nH]c3ccccc23)NC(=O)[C@H](CC(C)C)NC(=O)CNC(=O)[C@H](CCCNC(=N)N)NC(=O)c2ccc3c(c2)C(=O)OC32c3ccc(O)cc3Oc3cc(O)ccc32)C(=O)N[C@@H](CC(C)C)C(=O)N[C@@H](CO)C(=O)N1)C(=O)NCC(=O)N[C@@H](CCCNC(=N)N)C(=O)N[C@@H](CCCNC(=N)N)C(=O)NCCCOCCOCCOCCCNC(=O)CCC(=O)NCCCOCCOCCOCCCNC(=O)CCC(=O)NCCCOCCOCCOCCCNC(=O)CCC(=O)N[C@@H](C)C(=O)O` gave a Kd of 4.02 ± 0.5 µM (srtA (Staphylococcus aureus, UniProt Q2FV99); binding, fluorescence polarization; pH 7.5).
`CC[C@H](C)[C@@H]1NC(=O)[C@H]([C@@H](C)O)NC(=O)[C@@H]2CCCN2C(=O)[C@H](CC(C)C)NC(=O)[C@H](Cc2ccc(O)cc2)NC(=O)CSC[C@@H](C(N)=O)NC(=O)[C@H](CC(C)C)NC(=O)[C@@H]2CCCN2C(=O)[C@H](Cc2c[nH]cn2)NC(=O)[C@H](Cc2c[nH]c3ccccc23)NC(=O)[C@H](CC(C)C)NC(=O)[C@H](Cc2c[nH]cn2)NC(=O)CNC(=O)[C@H](C(C)C)NC(=O)CNC(=O)[C@H]([C@@H](C)O)NC1=O` gave a Kd of 0.763 ± 0.012 µM (VPS35/VPS29 (Homo sapiens, UniProt Q96QK1+Q9UBQ0); binding, ITC; 25 °C, heterodimer).
`CC[C@H](C)[C@H](NC(=O)[C@H](Cc1ccc(OP(=O)(O)O)cc1)NC(=O)[C@H](CCC(=O)O)NC(=O)[C@H](Cc1c[nH]cn1)NC(=O)CNC(=O)[C@H](CC(=O)O)NC(=O)[C@H](CO)NC(=O)[C@H](CO)NC(=O)[C@@H](NC(=O)[C@H](CO)NC(=O)[C@H](CCC(=O)O)NC(=O)c1ccc2c(c1)C(=O)OC21c2ccc(N(C)C)cc2Oc2cc(N(C)C)ccc21)C(C)C)C(=O)N[C@@H](Cc1ccc(O)cc1)C(=O)N[C@H](C(=O)N[C@@H](CC(=O)O)C(=O)N1CCC[C@H]1C(=O)N[C@@H](CCSC)C(=O)N[C@@H](CCC(N)=O)C(=O)N[C@@H](CC(=O)O)C(=O)O)C(C)C` gave a Kd of 1.91 µM (Adapter molecule crk SH2 domain; binding).
`Cn1c2cccc(=O)c-2nc2ccccc21` gave a Kd of 117 µM (TetR-family regulator NalD (Pseudomonas aeruginosa, UniProt Q9HY46, F132A/N129A/V133A)).

Repeated from above:
The Kd of `O=C1c2ccccc2C(=O)c2ccccc21` is reported as > 100 µM (Reaction center protein L chain, QB site (pufL, Cereibacter sphaeroides, UniProt P0C0Y8); QB site binding, competitive inhibitor).
`O=C(CO)[C@@H](O)[C@H](O)[C@H](O)COP(=O)(O)O` has a Kd of 30 ± 2 µM (pfkA (Geobacillus stearothermophilus, UniProt P00512)).
